{"data": "Published values pooled from the literature", "note": "Parts stem from different laboratories: compare values within a part only. Positions count from the first letter of the parent shown."}
{"data": "Block 1", "target": "CCNB3, cyclin fold, Cln2 fusion (human)", "method": "yeast growth competition, sequencing", "medium": "yeast", "setting": "weak parent motif", "reference": "not given", "reading": "higher = stronger binding", "starting sequence": "viral docking peptide; PTARRRLLHDLDT; partner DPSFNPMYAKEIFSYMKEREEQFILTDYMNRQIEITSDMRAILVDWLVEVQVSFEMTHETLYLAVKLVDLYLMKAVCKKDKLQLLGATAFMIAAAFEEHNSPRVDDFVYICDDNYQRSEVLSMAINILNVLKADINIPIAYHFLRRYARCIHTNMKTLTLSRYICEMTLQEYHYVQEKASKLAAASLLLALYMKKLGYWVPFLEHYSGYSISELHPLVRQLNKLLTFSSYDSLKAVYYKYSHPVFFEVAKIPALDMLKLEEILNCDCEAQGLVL"}
{"Variant": "T2A", "normalised enrichment score": -0.391}
{"Variant": "D12A", "normalised enrichment score": -0.429}
{"Variant": "R4A", "normalised enrichment score": -0.441}
{"Variant": "T13A", "normalised enrichment score": 0.163}
{"Variant": "D10A", "normalised enrichment score": -0.00302}
{"Variant": "R5A R6A L7A L8A", "normalised enrichment score": 0.0448}
{"Variant": "R5K L8F", "normalised enrichment score": 0.624}
{"Variant": "R5K H9F", "normalised enrichment score": 1.49}
{"Variant": "L8F", "normalised enrichment score": 1.72}
{"Variant": "P1A", "normalised enrichment score": 0.423}
{"data": "Block 2", "target": "UBE2D2 UBC core domain (UniProt P62837)", "method": "yeast two-hybrid", "medium": "yeast", "setting": "mostly zero background", "reference": "not given", "reading": "higher = stronger interaction", "B1": "PHF7 RING domain (UniProt Q9BWX1); chain IQHGHVGEESCILCCEDLSQQSVENIQSPCCSQAIYHRKCIQKYAHTSAKHFFKCPQCNNRKEFPQEML", "B2": "PEX2 RING domain (UniProt P28328); chain DNTLATSGKECALCGEWPTMPHTIGCEHIFCYFCAKSSFLFDVYFTCPKCGTEVHSLQPLK", "B3": "TRIM38 RING domain (UniProt O00635); chain STKKMMEEATCSICLSLMTNPVSINCGHSYCHLCITDFFKNPSQKQLRQETFCCPQCRAPFHMDSLRP", "sequence of UniProt P62837 (whole entry, looked up)": "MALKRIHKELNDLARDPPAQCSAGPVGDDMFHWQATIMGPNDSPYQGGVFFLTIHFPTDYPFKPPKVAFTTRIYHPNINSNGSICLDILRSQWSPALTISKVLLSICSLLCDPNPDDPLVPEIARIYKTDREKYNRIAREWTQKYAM"}
{"Sequence": "LKQVSIRENCCSLCCDEVADTQLKPCGHSDLCMDCALQLETCPLCRKEIVSRIRQI (RSPRY1 RING domain (UniProt Q96DX4))", "lacZ reporter activity": 0}
{"Sequence": "B1 (PHF7 RING domain)", "lacZ reporter activity": 0}
{"Sequence": "B2 (PEX2 RING domain)", "lacZ reporter activity": 0}
{"Sequence": "B3 (TRIM38 RING domain)", "lacZ reporter activity": 0}
{"data": "Block 3", "target": "Runt-related transcription factor 1, full length (RUNX1, Homo sapiens, UniProt Q01196-8, residues 1-480)", "method": "protein-binding microarray", "molecule type": "hairpin DNA", "medium": "in vitro", "concentration": "not given", "setting": "whole hairpin DNA, median over replicate spots", "reference": "not given", "reading": "higher = stronger binding"}
{"Oligonucleotide": "GAGGCCCGTTGCGGTTGGCCTCCTGGCCAACCGCAACGGGCCTCACACTC (5mC at 37)", "median fluorescence": "6190 a.u."}
{"Oligonucleotide": "CTCAGTTATGTGGGCTGGACTCCTGTCCAGCCCACATAACTGAGACACTC", "median fluorescence": "1880 a.u."}
{"Oligonucleotide": "CTCAGTTCTGCGGGCTGGACTCCTGTCCAGCCCGCAGAACTGAGACACTC (5mC at 11)", "median fluorescence": "2000 a.u."}
{"Oligonucleotide": "GAGGCCTGTTGCGGTAGGCCTCCTGGCCTACCGCAACAGGCCTCACACTC", "median fluorescence": "2940 a.u."}
{"Oligonucleotide": "GAGGCCCAACCGCCGCAGCCTCCTGGCTGCGGCGGTTGGGCCTCACACTC (5mC at 14 30)", "median fluorescence": "2950 a.u."}
{"Oligonucleotide": "CTCAGTTCTGTGGGCTGGACTCCTGTCCAGCCCACAGAACTGAGACACTC (5mC at 31)", "median fluorescence": "1760 a.u."}
{"Oligonucleotide": "CTCAGCGCTGTGGGCTGGACTCCTGTCCAGCCCACAGCGCTGAGACACTC", "median fluorescence": "1940 a.u."}
{"Oligonucleotide": "GAGGCCTGGTGTGGTTGGCCTCCTGGCCAACCACACCAGGCCTCACACTC (5mC at 36)", "median fluorescence": "2380 a.u."}
{"data": "Block 4", "target": "HLA class I histocompatibility antigen, A alpha chain, allele A*80:01 (Homo sapiens, UniProt P04439)", "observed": "peptide-MHC binding", "molecule type": "peptide", "concentration": "concentration not given"}
{"Sequence": "ESDPEGALW", "binding": "inactive"}
{"Sequence": "AQKLATKPV", "binding": "inactive"}
{"Sequence": "GVPPKVVSY", "binding": "inactive"}
{"Sequence": "YWDQVTFFY", "binding": "inactive"}
{"Sequence": "EVNAHIHTM", "binding": "inactive"}
{"note": "A few entries again (block 1):"}
{"Variant": "L8F", "normalised enrichment score": 1.72}
{"Variant": "R5K L8F", "normalised enrichment score": 0.624}
{"Variant": "D12A", "normalised enrichment score": -0.429}
{"Variant": "R5K H9F", "normalised enrichment score": 1.49}
